Published values collected from several papers.
Every numbered part comes from another study and shows a few of its results, in no order. Substitutions count along the parent as printed.

Block 1
Target: CCNE1, cyclin fold, Cln2 fusion (human)
Technique: yeast growth competition, sequencing
Sample: yeast
Notes: weak parent motif
Baseline: not given
Direction: higher = stronger binding
Parent: FZR1 docking peptide (human); QDYERRLLRQIVI
For `QDYERRLARQIVI [L8A]`, “normalised enrichment score” read 0.633.
Under “normalised enrichment score”, `QDYEKRLLRQIVI [R5K]` is recorded as 0.0501.
Under “normalised enrichment score”, `QDYERRLLRQIAI [V12A]` is recorded as 0.176.
`QDYERRLLRQIVA [I13A]`: “normalised enrichment score” 0.000512.
For `QAYERRLLRQIVI [D2A]`, “normalised enrichment score” read 0.611.
Under “normalised enrichment score”, `QDYERRALRQIVI [L7A]` is recorded as 0.724.
For `QDYEARLLRQIVI [R5A]`, “normalised enrichment score” read 0.158.

Block 2
Target: Centromere-binding protein 1, full length, N-terminal tag (CBF1, Saccharomyces cerevisiae, UniProt P17106, residues 1-351)
Chain of UniProt P17106 (whole entry, looked up): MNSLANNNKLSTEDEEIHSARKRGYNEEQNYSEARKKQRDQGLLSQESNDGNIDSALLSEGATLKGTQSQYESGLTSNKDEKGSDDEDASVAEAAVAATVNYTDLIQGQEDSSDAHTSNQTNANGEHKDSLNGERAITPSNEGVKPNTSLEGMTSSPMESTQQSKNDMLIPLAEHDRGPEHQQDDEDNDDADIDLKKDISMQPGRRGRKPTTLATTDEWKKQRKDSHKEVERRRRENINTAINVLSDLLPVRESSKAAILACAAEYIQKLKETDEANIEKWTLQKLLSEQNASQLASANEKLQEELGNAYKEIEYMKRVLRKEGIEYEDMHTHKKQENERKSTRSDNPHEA
Technique: protein-binding microarray
Form: double-stranded DNA, one strand shown
Sample: in vitro
Tested at: 0.8 µM
Notes: whole 60-bp probe, no competitor
Direction: higher = stronger binding
`CTAGCCGTTGTTCATACCGTGACTAATAGTGGCTTCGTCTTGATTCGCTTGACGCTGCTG` gave a fluorescence intensity of 791 a.u.
`CTATTTTTGTATTCTGCTGATATCTTTTTCTACTTCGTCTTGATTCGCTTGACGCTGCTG` has a fluorescence intensity of 531 a.u.
For `CTAACCTGAATGATTAATCTGATGCTTGCAATATTCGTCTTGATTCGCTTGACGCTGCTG`, the fluorescence intensity was 517 a.u.
`GAATCTGTGCATTGGCATGTGCAAGCATTCGATTAGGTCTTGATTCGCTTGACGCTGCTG` gave a fluorescence intensity of 591 a.u.
`GAATATTAGAAGGATCAGCTGAAACCTAAAGATTAGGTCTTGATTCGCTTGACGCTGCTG` has a fluorescence intensity of 589 a.u.
With `CTAGGACAATTCCATTTGATGTCACCGTGGTAATTCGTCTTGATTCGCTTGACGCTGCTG` the fluorescence intensity was 511 a.u.
With `TGTACGAAGCTATTGATCGTGGTTATAGTAGTTAGGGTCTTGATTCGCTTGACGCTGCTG` the fluorescence intensity was 531 a.u.
`TGTACGAAGCTATATCATATGAATATAGTAGTTAGGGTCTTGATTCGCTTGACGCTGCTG` gave a fluorescence intensity of 519 a.u.
With `TGTACGAAGCTATGTGACCAGATTATAGTAGTTAGGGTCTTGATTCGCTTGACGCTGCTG` the fluorescence intensity was 626 a.u.
`CTACGTAATTGGAAACACGCAATTTTAACTTTGTTCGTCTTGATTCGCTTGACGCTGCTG` gave a fluorescence intensity of 522 a.u.
The fluorescence intensity of `CTAAAGAAAATTCAGCACATGCCAGATGGCGAGTTCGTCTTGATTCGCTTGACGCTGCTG` is reported as 775 a.u.
For `CTACACACGCACACGCGCACGCATCCACATTCATTCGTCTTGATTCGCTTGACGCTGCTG`, the fluorescence intensity was 634 a.u.
With `GAACACAAAAAAATGCACATGATGTTTTATTATTAGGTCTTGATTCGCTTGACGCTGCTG` the fluorescence intensity was 1300 a.u.
`GAATAATATACTGGTAGTGTGACTACTAGTTTATAGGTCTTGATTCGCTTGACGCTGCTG` gave a fluorescence intensity of 919 a.u.
`CTAAAAGTGATTTATCAGATGAAAGGCAAATCTTTCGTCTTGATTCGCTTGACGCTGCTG` gave a fluorescence intensity of 510 a.u.
For `GAATACACATTCGTTCTCCTGATCACGGTCTCATAGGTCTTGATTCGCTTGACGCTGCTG`, the fluorescence intensity was 1190 a.u.
The fluorescence intensity of `GAAACGACAAACTACCACATGAAGTGGCGGAACTAGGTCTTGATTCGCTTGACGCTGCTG` is reported as 476 a.u.
`GAATCAACTATCACTTACACCTGAGTGTTGTCATAGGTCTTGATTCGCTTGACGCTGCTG` has a fluorescence intensity of 502 a.u.
`CTAGCCCCACGCCCCCACGTTGTTGAGGTGTTTTTCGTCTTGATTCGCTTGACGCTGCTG` gave a fluorescence intensity of 540 a.u.

Block 3
Partner: ARF13 (Arabidopsis thaliana, UniProt Q9FX25)
Chain of UniProt Q9FX25 (whole entry, looked up): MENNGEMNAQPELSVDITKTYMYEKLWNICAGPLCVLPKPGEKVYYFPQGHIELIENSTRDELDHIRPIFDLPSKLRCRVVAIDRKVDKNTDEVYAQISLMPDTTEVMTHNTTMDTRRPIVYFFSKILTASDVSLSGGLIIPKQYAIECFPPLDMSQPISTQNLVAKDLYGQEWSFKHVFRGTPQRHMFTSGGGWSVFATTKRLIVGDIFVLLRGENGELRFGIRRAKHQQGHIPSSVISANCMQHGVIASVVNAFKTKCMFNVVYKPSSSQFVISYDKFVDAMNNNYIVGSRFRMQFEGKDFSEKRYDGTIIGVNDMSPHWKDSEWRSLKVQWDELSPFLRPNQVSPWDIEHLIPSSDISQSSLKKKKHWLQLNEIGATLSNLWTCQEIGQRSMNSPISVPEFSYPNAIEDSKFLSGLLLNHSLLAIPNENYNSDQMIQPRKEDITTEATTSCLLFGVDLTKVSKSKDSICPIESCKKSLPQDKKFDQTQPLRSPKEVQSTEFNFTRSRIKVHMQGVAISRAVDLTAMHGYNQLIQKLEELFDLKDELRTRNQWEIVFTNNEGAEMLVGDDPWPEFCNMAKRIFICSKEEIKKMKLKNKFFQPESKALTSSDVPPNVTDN
Technique: two-hybrid
Baseline: out of 4 tests
Direction: higher = firmer interaction
B1: IAA28 (Arabidopsis thaliana, UniProt Q9XFM0); chain MEEEKRLELRLAPPCHQFTSNNNINGSKQKSSTKETSFLSNNRVEVAPVVGWPPVRSSRRNLTAQLKEEMKKKESDEEKELYVKINMEGVPIGRKVNLSAYNNYQQLSHAVDQLFSKKDSWDLNRQYTLVYEDTEGDKVLVGDVPWEMFVSTVKRLHVLKTSHAFSLSPRKHGKE
B2: ARF11 500-622 (Arabidopsis thaliana, UniProt Q9ZPY6); chain SPKEQKQQTSTRSRIKVQMQGTAVGRAVDLTLLRSYDELIKELEKMFEIEGELSPKDKWAIVFTDDEGDRMLVGDDPWNEFCKMAKKLFIYPSDEVKKMRSKSLLGDKGTIVNLESDQRTVHV
B3: ARF8 699-811 (Arabidopsis thaliana, UniProt Q9FGV1); chain NSSNQTKNFVKVYKSGSVGRSLDISRFSSYHELREELGKMFAIEGLLEDPLRSGWQLVFVDKENDILLLGDDPWESFVNNVWYIKILSPEDVHQMGDHGEGSGGLFPQNPTHL
B4: ARF10 575-693 (Arabidopsis thaliana, UniProt Q9SKN5); chain LQGLETGHCKVFMESEDVGRTLDLSVIGSYQELYRKLAEMFHIEERSDLLTHVVYRDANGVIKRIGDEPFSDFMKATKRLTIKMDIGGDNVRKTWITGIRTGENGIDASTKTGPLSIFA
B5: ARF7 1030-1164 (Arabidopsis thaliana, UniProt P93022); chain PAQTQRMRTYTKVQKRGSVGRSIDVNRYRGYDELRHDLARMFGIEGQLEDPQTSDWKLVYVDHENDILLVGDDPWEEFVNCVQSIKILSSAEVQQMSLDGNFAGVPVTNQACSGGDSGNAWRGHYDDNSATSFNR
B6: ARF2 727-859 (Arabidopsis thaliana, UniProt Q94JM3); chain TKTNSSRSCTKVHKQGIALGRSVDLSKFQNYEELVAELDRLFEFNGELMAPKKDWLIVYTDEENDMMLVGDDPWQEFCCMVRKIFIYTKEEVRKMNPGTLSCRSEEEAVVGEGSDAKDAKSASNPSLSSAGNS
B7: ARF6 790-935 (Arabidopsis thaliana, UniProt Q9ZTX8); chain SENPQSNTFVKVYKSGSFGRSLDISKFSSYHELRSELARMFGLEGQLEDPVRSGWQLVFVDRENDVLLLGDDPWPEFVSSVWCIKILSPQEVQQMGKRGLELLNSAPSSNNVDKLPSNGNCDDFGNRSDPRNLGNGIASVGGSFNY
The positive tests of `B1 (IAA28)` is reported as 0.
The positive tests of `B2 (ARF11 500-622)` is reported as 0.
With `B3 (ARF8 699-811)` the positive tests was 0.
For `B4 (ARF10 575-693)`, the positive tests was 0.
`B5 (ARF7 1030-1164)` gave a positive tests of 0.
`B6 (ARF2 727-859)` has a positive tests of 0.
`B7 (ARF6 790-935)` has a positive tests of 0.

Block 4
Target: ABI1, truncated, D143A, DHFR fusion (Arabidopsis thaliana)
Technique: DHFR PCA, deep sequencing
Sample: yeast
Notes: methotrexate growth selection, single substitutions
With: (+)-ABA 0.032 µM
Baseline: wild-type fitted maximum
Direction: higher = stronger binding
Parent: PYL1, truncated, DHFR fusion (Arabidopsis thaliana); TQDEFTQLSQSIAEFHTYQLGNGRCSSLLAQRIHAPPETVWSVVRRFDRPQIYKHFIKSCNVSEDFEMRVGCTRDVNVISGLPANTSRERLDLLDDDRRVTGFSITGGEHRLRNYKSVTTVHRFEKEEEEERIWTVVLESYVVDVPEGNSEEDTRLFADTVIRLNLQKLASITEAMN
Under “relative binding score”, `S104M` is recorded as 1.63%.
`D96Y` — result for “relative binding score”: 7.52%.
For `D3C`, “relative binding score” read 17.9%.
Under “relative binding score”, `Y18A` is recorded as 1.21%.
`M176N`: “relative binding score” -2.75%.
`F56P`: “relative binding score” 2.26%.
`V142A` — result for “relative binding score”: 24.2%.
For `T86N`, “relative binding score” read 19.7%.
For `E4R`, “relative binding score” read 5.17%.
Under “relative binding score”, `Y18T` is recorded as -2.97%.
For `L112Y`, “relative binding score” read 1.37%.
`N61K`: “relative binding score” 57.9%.
Under “relative binding score”, `S42A` is recorded as 26.4%.
`A30F` — result for “relative binding score”: 18.6%.
For `S140A`, “relative binding score” read 3.49%.

Repeated from above (block 2):
`GAATCAACTATCACTTACACCTGAGTGTTGTCATAGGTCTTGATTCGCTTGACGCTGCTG` has a fluorescence intensity of 502 a.u.
`CTAAAAGTGATTTATCAGATGAAAGGCAAATCTTTCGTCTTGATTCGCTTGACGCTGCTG` gave a fluorescence intensity of 510 a.u.
With `TGTACGAAGCTATTGATCGTGGTTATAGTAGTTAGGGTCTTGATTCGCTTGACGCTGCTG` the fluorescence intensity was 531 a.u.
